Experimental data of several laboratories.
Parts stem from different laboratories: compare values within a part only.

Sample 1
Target: Centromere-binding protein 1, full length, His-tagged (CBF1, Saccharomyces cerevisiae, UniProt P17106, residues 1-351)
UniProt P17106, sequence (whole entry, looked up): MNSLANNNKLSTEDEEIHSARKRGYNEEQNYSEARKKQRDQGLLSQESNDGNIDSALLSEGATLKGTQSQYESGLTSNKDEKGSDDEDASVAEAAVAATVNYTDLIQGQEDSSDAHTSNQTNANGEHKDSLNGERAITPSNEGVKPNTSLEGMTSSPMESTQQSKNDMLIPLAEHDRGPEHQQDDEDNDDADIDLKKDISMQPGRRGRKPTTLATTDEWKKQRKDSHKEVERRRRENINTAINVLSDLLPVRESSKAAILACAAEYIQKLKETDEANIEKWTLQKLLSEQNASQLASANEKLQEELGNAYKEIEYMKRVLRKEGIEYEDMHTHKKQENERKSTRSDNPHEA
Technique: competition protein-binding microarray
Form: double-stranded DNA, one strand shown
Medium: in vitro
Concentration: 2 µM
Setting: whole 60-bp probe, lowest competitor level
With: Pho4 competitor, 0.05 µM
Direction: higher = stronger binding
`AGCGGCACATAATGCAGCGTGCGGAAGTGTCAGTAGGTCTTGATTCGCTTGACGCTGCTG` gave a fluorescence intensity of 72 a.u.
For `CATACCCAACCTTGTGACGTGGGTGAAGATATTTGTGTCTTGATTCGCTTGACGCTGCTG`, the fluorescence intensity was 103 a.u.
The fluorescence intensity of `GGCCTGGGTATTATCCTCATGACGCTCGTCAACAACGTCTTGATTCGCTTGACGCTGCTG` is reported as 72.1 a.u.
For `TTATAAAGAAACCGTCACGTTCTGGATGCGACGTCGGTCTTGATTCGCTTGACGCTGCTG`, the fluorescence intensity was 265 a.u.
For `CGTCCTAGTGATTGCCACGTGGGTGCCATGAGGAAGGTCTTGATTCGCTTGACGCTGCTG`, the fluorescence intensity was 1040 a.u.
With `CCGCGCAAAGCAGGCACCGTGCCGATATCTTTCTTTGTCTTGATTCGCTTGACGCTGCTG` the fluorescence intensity was 61 a.u.
`CGGGGTTAAGTTTGCACAGTGGGTGGCTTGCAGCAGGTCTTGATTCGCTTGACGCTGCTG` gave a fluorescence intensity of 83 a.u.
For `CGTCCTAGTGATTGTCACTAGACTTCCATGAGGAAGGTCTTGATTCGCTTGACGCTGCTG`, the fluorescence intensity was 73 a.u.
`AAATTACTAAGTTGAATCGTGGGTGACGCCGTATGAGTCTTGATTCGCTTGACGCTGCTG` has a fluorescence intensity of 58.2 a.u.
For `TATGGCATGAAAAATCATATGACTTCAAAAATGAACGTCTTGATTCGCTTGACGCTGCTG`, the fluorescence intensity was 497 a.u.
With `GGGATCGAAAGAAGGGGCGTGGTGAGAAGGGTAACGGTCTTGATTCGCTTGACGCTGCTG` the fluorescence intensity was 78.7 a.u.
For `CTTTCCCGATCTTGAGAGGTGGGTGTAGCACATTTGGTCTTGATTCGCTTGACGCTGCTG`, the fluorescence intensity was 55.4 a.u.
`GTCTTGTCTCATTGTCACTGCACTTTCCCCACTTCAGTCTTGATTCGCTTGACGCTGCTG` has a fluorescence intensity of 85.2 a.u.
The fluorescence intensity of `GTCTTAACTTCCTGGCACGATTCTGCTTATATTTATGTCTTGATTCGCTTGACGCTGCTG` is reported as 79.9 a.u.
`CAACTAAAATGTCCAGACATGATGTTAAGCGGAAGGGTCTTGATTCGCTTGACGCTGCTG` has a fluorescence intensity of 71.4 a.u.
For `CTAACGAAGGTTTGAAACGTGGGTGACAAGCCAAGTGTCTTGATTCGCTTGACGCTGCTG`, the fluorescence intensity was 70 a.u.
With `ATAGGGCGCTCGGCTCTCGTGCTTTGCGGTGGGAGCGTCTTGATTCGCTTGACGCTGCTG` the fluorescence intensity was 79.7 a.u.
The fluorescence intensity of `TCCCCATGAACTCAGCATGTGCTACTCCAGTTAATGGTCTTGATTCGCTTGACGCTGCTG` is reported as 130 a.u.
The fluorescence intensity of `TATCTCTGATGTTTGCACGTGCTTTAGCAACTCTTTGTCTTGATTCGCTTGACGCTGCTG` is reported as 2130 a.u.

Sample 2
Target: Transcription factor Sp1 (SP1, Homo sapiens, UniProt P08047, residues 1-785, full length assumed)
UniProt P08047, sequence (whole entry, looked up): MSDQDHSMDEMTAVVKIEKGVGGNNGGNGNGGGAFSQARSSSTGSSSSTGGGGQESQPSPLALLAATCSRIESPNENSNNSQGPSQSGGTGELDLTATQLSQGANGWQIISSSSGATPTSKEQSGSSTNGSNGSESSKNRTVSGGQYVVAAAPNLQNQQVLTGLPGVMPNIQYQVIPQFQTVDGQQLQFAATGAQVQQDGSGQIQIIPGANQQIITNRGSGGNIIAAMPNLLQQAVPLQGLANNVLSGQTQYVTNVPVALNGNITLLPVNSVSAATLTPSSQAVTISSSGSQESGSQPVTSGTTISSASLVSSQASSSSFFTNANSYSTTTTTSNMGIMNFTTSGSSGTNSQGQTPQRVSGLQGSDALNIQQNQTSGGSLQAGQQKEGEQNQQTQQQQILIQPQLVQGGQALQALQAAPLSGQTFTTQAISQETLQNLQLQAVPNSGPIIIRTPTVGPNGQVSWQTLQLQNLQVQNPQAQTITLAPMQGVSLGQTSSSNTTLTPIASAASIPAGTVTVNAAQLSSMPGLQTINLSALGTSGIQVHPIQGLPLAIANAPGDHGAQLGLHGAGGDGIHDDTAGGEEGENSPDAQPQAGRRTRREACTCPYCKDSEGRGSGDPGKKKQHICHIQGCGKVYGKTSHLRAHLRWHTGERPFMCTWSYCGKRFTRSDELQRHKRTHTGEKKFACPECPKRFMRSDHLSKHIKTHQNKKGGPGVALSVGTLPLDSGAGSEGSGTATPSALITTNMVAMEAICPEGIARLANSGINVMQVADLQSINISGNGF
Technique: protein-binding microarray
Form: double-stranded DNA, one strand shown
Medium: in vitro
Concentration: not given
Setting: k-mer, scored over probes, only values ≥0.25
Direction: higher = stronger binding
`CCCCTCCA` gave an E-score of 0.474.
With `CCTTCTAC` the E-score was 0.264.
With `CCCTACCC` the E-score was 0.269.
`CGCCCCGA` has an E-score of 0.284.
With `AGATACCC` the E-score was 0.304.
`GCCACGCC` has an E-score of 0.315.
With `ACATCATA` the E-score was 0.305.
For `AGGGGAAG`, the E-score was 0.299.
With `AAAGTATA` the E-score was 0.26.
The E-score of `CCACACAC` is reported as 0.281.
With `TCGCCCCA` the E-score was 0.265.
The E-score of `GGGGAAGA` is reported as 0.268.
`GCCCCTTA` has an E-score of 0.275.
The E-score of `CCCATACC` is reported as 0.306.
For `CCGCCCTC`, the E-score was 0.442.
For `CATAAGGG`, the E-score was 0.297.
`AGGGCGGG` has an E-score of 0.483.
For `GTCATCCA`, the E-score was 0.28.
For `ACTCCCCT`, the E-score was 0.304.

Sample 3
Target: Ras GTPase-activating protein-binding protein 1, full length (G3BP1, Homo sapiens, UniProt Q13283)
UniProt Q13283, sequence (whole entry, looked up): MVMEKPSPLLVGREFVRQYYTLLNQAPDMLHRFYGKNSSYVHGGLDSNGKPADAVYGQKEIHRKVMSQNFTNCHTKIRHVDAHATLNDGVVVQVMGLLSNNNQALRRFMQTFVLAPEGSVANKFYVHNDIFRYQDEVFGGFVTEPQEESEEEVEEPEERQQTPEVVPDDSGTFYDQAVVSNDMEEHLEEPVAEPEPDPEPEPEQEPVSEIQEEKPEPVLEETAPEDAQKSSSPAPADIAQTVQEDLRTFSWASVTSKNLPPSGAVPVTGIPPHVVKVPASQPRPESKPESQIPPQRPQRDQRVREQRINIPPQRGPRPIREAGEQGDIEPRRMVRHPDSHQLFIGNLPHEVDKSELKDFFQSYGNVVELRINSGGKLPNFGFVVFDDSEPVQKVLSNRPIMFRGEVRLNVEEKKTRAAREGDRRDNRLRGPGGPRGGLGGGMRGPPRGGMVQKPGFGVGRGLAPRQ
Technique: RNA Bind-n-Seq
Form: RNA
Medium: in vitro
Concentration: 200 nM
Setting: whole 134-nt RNA, ends assumed
With: 150 mM LiCl
Baseline: input library
Direction: higher = stronger binding
Each molecule: 7-deaza-guanosine replaces G
`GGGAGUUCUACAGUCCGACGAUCUCAAGUCCUGUGCUACACAUCGUAUGUACCGAAUCGGUUGGGUUGGGGUUGGGGAAAGUAUUAUGUUACGCCGUUCGGAUCUGCACUUCCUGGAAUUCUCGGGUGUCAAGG` gave a log2 enrichment of -0.38.
With `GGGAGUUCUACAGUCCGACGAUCUGGGAGGUGGAGUUUGUUUAUUUUUUUAGCUCAUUUCCAGGGGUGGGAAUUUUUUUUUAAUAUGUGUCAUGAAUAAAGUUGUUUUUGAAAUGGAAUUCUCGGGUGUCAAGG` the log2 enrichment was -0.812.
`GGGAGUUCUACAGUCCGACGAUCGCAGGAAGUAAAAACAAAUGGAAAUGCUUCGGAUAGUGGCAGGGGUGGGCGUUGCUAAGGAAAGGGUGGGAUGGGAGUGGGUAAAGAGUUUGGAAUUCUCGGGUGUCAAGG` has a log2 enrichment of 0.206.
With `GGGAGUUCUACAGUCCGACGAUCCAAGUCCUGUGCUACACAUCGUAUGUACCGAAUCGGAAAAAGGAAAAAGGUUUGGAAAGUAUUAUGUUACGCCGUUCGGAUCUGCACUUCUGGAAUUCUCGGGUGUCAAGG` the log2 enrichment was -2.14.
The log2 enrichment of `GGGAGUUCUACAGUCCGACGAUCUCCUGUGCUACACAUCGUAUGUACCGAAUCGGGUUUUUUGGUUUUUUGGGGUUUUUUGGGAAAGUAUUAUGUUACGCCGUUCGGAUCUGCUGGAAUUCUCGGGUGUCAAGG` is reported as 0.336.
With `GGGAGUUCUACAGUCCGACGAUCUCAAGUCCUGUGCUACACAUCGUAUGUACCGAAUCGGGAAAGGAAAGGAAAGGGGAAAGUAUUAUGUUACGCCGUUCGGAUCUGCACUUCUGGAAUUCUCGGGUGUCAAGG` the log2 enrichment was -0.572.
`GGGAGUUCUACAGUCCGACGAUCCUGUGCUACACAUCGUAUGUACCGAAUCGGGGAAAAAAAGGGAAAAAAAGGAAAAAAAGGGGAAAGUAUUAUGUUACGCCGUUCGGAUCUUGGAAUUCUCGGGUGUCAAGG` gave a log2 enrichment of 0.415.
`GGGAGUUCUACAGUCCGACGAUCUGCUUCAGACCAAGCGGAGCUCCCGGAGGCAAAGCCUGGAGCUGCAGAAGUGUGAAGAGAUCCUCCACAAGAUCGUGAAGUACCGCUUCAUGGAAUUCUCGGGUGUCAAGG` has a log2 enrichment of -3.38.

Sample 4
Target: RNA binding protein fox-1 homolog 2, RRM domain, GST-SBP tag (RBFOX2, Homo sapiens, UniProt O43251-10, residues 100-194)
Technique: RNA Bind-n-Seq
Form: RNA
Medium: in vitro
Concentration: 365 nM
Setting: natural RNA segment, single round, ends assumed
Baseline: no-protein control
Direction: higher = stronger binding
Construct (chain): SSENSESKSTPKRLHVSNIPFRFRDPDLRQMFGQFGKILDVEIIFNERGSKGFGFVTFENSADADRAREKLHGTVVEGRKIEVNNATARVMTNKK
For `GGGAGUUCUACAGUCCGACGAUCAAAGAGAAUGUUCUCUUACAUAUGUUAGGAAAAUAGGCACACUUUCAAAGAGAGGUAUAGGGGCUUUUUACUGCCUUCGAAAUCACUUUUAAUAAAAGUUGUAUGAUAAAUGGAAUUCUCGGGUGCCAA`, “RBNS enrichment (R)” read 0.307.
For `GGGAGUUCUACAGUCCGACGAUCUUGCUUUGUUUAUAAAUAGUUUAUGGGAAAUUUGCACUUAGUAUGUUUUGAAUAAUGACCACGCAUGGACACAGUUUCAUUAAUUUAAAUUGCACCACACAAGUAGCAGUUGGAAUUCUCGGGUGCCAA`, “RBNS enrichment (R)” read 33.4.
`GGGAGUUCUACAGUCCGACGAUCUAUAGAAGAAUGCAUGCUUUCCAUAUUUUUUUCCUUACAUAAACAUCAGGUUAGGCAGUAUAAAGAAUAGGACUUGUUUUUGUUUUUGUUUUGUUGCACUGAAGUUUGAUUGGAAUUCUCGGGUGCCAA` — result for “RBNS enrichment (R)”: 12.2.
`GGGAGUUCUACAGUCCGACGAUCCUAGCCUCGCUCUUGGCAGGUACUCAGCGAAUGAAUGCUGUAUAUGUUGGGUGCAAAGUUCCCUACUUCCUGUGACUUCAGCUCUGUUUUACAAUAAAAUCUUGAAAAUGUGGAAUUCUCGGGUGCCAA` — result for “RBNS enrichment (R)”: 1.66.
For `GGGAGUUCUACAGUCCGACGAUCUUCUAUCUCCUGGAGGUCCCAAGAUGAUUCAUAAAUACUGCCUGGUGCACAGUGCCCAAACAGCAAUAGAAAGGCUUACUUAUAACCAAACUCCAAGUGAUAGUGAGACCUGGAAUUCUCGGGUGCCAA`, “RBNS enrichment (R)” read 0.457.
Under “RBNS enrichment (R)”, `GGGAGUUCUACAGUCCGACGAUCGUCCAGAAGAGCAAUGGAGGAAGUGACAGCUAAUGUUGCAGUUCUUAUUGUAUGGCAUAGGACUGGCAUUAUAUAGCAGAAAUCAACUACUGUACAAUUUCUUGGGGUUAUGGAAUUCUCGGGUGCCAA` is recorded as 0.398.
Under “RBNS enrichment (R)”, `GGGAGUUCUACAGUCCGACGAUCCUUUGUAAAGUGCGCAAGUGCAAUAAUUUAAAGAGGUCUUAUCUUUGCAUUUAUAAAUUAUAAAUAUUGUACAUGUGUGUAAUUUUUCAUGUAUUCAUUUGCAGUCUUUGUGGAAUUCUCGGGUGCCAA` is recorded as 0.515.
`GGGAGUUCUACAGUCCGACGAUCAAUUGUCAGUAUGGCACAGAUCACUGUAUUAAAAUGCUCUUUCGUCUUCAUAUUUACCUUCUGAGGUCAUUUUUUAACUUAAUGUGUUACUACAAAGAUUUGCAGAUCUUUGGAAUUCUCGGGUGCCAA`: “RBNS enrichment (R)” 0.683.

Excerpt of the above (sample 1):
For `CGTCCTAGTGATTGCCACGTGGGTGCCATGAGGAAGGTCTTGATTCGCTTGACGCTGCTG`, the fluorescence intensity was 1040 a.u.
With `CCGCGCAAAGCAGGCACCGTGCCGATATCTTTCTTTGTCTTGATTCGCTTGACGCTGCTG` the fluorescence intensity was 61 a.u.
`CGGGGTTAAGTTTGCACAGTGGGTGGCTTGCAGCAGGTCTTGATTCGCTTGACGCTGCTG` gave a fluorescence intensity of 83 a.u.
For `CGTCCTAGTGATTGTCACTAGACTTCCATGAGGAAGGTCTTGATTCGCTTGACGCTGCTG`, the fluorescence intensity was 73 a.u.
`AAATTACTAAGTTGAATCGTGGGTGACGCCGTATGAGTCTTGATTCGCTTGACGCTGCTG` has a fluorescence intensity of 58.2 a.u.
For `TATGGCATGAAAAATCATATGACTTCAAAAATGAACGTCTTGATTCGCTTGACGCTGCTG`, the fluorescence intensity was 497 a.u.
With `GGGATCGAAAGAAGGGGCGTGGTGAGAAGGGTAACGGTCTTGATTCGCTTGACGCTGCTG` the fluorescence intensity was 78.7 a.u.
For `CTTTCCCGATCTTGAGAGGTGGGTGTAGCACATTTGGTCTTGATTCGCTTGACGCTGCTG`, the fluorescence intensity was 55.4 a.u.
